Results gathered from unrelated publications.
A part holds a random share of what one study measured. Substitutions count along the parent as printed.

Block 1
Target: CCND1, cyclin fold, Cln2 fusion (human)
Method: yeast growth competition, sequencing
Medium: yeast
Setting: weak parent motif
Baseline: not given
Reading: higher = stronger binding
Parent: REV3L docking peptide (human); PPVIIKYIIINRF
Change | normalised enrichment score
PPVIIKYAIINRF [I8A] | 0.252
APVIIKYIIINRF [P1A] | -0.104
PPVIIKYIAINRF [I9A] | 0.0994
PPVIIKYIIANRF [I10A] | 0.487
PPVIAKYIIINRF [I5A] | -0.00423
PPAIIKYIIINRF [V3A] | 0.528

Block 2
Substance: PhoQ, residues 284 288 289 292 302 303 AEGLLW
Method: Sort-seq
Refers to: YFP reporter
Medium: E. coli
Setting: PhoQ-PhoP variant library
With: 10 µM Mg2+
Baseline: high Mg2+ state
Reading: higher = stronger signaling
target | fold induction
PhoP, residues 12 14 15 18 19 TPWTL (Escherichia coli, UniProt P23836) | 1.26
PhoP, residues 12 14 15 18 19 LHHYF (Escherichia coli, UniProt P23836) | 5.24
PhoP, residues 12 14 15 18 19 NFFVT (Escherichia coli, UniProt P23836) | 13
PhoP, residues 12 14 15 18 19 VGHWL (Escherichia coli, UniProt P23836) | 10.5

Block 3
Target: RING finger protein unkempt homolog, zinc fingers 1-6, GST-SBP tag (UNK, Homo sapiens, UniProt Q9C0B0, residues 30-357)
Chain of UniProt Q9C0B0 (30-357, looked up): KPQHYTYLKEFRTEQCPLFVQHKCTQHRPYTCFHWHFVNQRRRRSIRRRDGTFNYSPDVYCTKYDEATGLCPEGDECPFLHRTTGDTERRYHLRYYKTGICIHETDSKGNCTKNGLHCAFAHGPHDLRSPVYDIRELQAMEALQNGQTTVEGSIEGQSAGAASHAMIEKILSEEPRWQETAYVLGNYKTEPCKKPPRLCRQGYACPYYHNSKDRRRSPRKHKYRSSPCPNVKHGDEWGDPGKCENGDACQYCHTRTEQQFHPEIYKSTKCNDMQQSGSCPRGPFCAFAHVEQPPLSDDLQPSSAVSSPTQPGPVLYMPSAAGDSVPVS
Method: RNA Bind-n-Seq
Molecule type: RNA
Medium: in vitro
Tested at: not given
Setting: RNA with constant flanks, human and mouse sites, ends assumed
Baseline: input RNA pool
Reading: higher = stronger binding
Strand | bound/input enrichment
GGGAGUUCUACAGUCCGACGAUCCAGCUUCGGCAGGACAUUGUUGCUGGACGUCUGCCCUGUUCCUUUGCAACUUUAGCCCUACUCGGGUCUUACACGAUCCAGUCUGAGCUGGGAGACUAUGACCCAGAACUGCACGGCAUGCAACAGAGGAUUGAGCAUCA | 0.149 ratio
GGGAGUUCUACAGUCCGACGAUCGUUAUGGAAAUAAAUAAUGAAGAGAAACCAGACCCGGGAGCAGAAGAGGAGUUUGGAGGUCUUGUGUCUGCUAACCUUAUACUUUUGAGGAACAGGCUCCUAGACAUCUUGCUAAAGCUGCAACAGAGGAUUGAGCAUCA | 0.407 ratio
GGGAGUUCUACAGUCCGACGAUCUACAUUGUUGCCAAUUACUUUUCAGAGCUUUUCCAUUUGCUGUCCUCAGGAAAUUGCAAAACCAGAAAUCUUGUUUUGAAACUACUUUUAAAUAUGUCUGAAAAUCCAACUGCAGCCAGACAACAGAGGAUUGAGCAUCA | 0.184 ratio
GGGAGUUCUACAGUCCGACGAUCGAGAUCUUUAUGUCUGAAGCUGGGAAAGUAAACCAGAAGAUUAAAGUAUGGUUUAGUGAUUACUUCAACAUCAGUGAUACAAUUGCCAUAAUUUCUUUCUUCAUUGGAUUUGGACUAAGACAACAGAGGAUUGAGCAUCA | 0.236 ratio
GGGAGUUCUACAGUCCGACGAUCGACACAAACUACAAUGCAAACCUUUUUCCUGGUACCUAGAGAAUAUAUAUCCUGAUUCUCAAAUUCCACGUCACUAUUUCUCAUUGGGAGAGAUACGAAAUGUGGAAACGAAUCAGUGUCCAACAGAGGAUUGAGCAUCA | 1.36 ratio
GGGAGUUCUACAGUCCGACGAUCGCAUCCUGUGAAAAUACUCUUAAUACAUUAAGAUAUGCAAAUAGAGUAAAGGAGUUUGGAAUUAGUCCAUCAGACAUUCCCUUCUCACAGGGUAGUGGCAGUCGCCCUGAUCUCUCUCCUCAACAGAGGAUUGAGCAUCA | 0.128 ratio
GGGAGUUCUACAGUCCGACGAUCACCAGAUUCUGCCUCAUCUGUAACUAUGUCAGUCGAAUAAUUGAACCCCUCACUUCUAGAUGUUCAAAAUUCCGCUUCAAGCCUCUGUCAGAUAAGAUUCAACAGGAGCGAUUACUGGAUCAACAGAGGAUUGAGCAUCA | 1.47 ratio
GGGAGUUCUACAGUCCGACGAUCGUCUUGCUCAGCACGUACCUGAUAGUCCUCCUUGUUCUCCUGGCAGUUAUUAUAUGCACCGUGUUGGCCAUCGUGUGUGUCAGCAUGAGAGGAACCAUUUGUAACCCUGGACCUCGGAAGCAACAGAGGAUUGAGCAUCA | 0.218 ratio
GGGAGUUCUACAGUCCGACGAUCCACCGCUCCCCACACAUUCCAUACAAGCUGCUGCACCUGGUGUGGACGCACGCCCGGCACCUGGCGGGUUAUGAGCAGCAGGACGCACAUGAGUUCCUCAUUGCAGCCCUGGACGUCCUCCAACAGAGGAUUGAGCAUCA | 0.159 ratio
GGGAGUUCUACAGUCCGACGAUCAGCUUGCAUGCUAUGGAGUCUACCAGAGAGUCAUUGAAAGCAGAACUGGGAACUGAUUUGCUUUCUCAACUGAGUUUGGAAGAUCAGAAGAGAGUAGAUGCACUGAAUGAUGAGAUUCGUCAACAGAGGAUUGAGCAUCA | 0.104 ratio
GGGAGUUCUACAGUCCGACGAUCCCUGAGCCUGUGGCUCAACCUCAGCCUCAGUCUCAGCCCCAGCUUCAGCUUCAAUCCCAGUCCCAACCAGUACUCCAGUCCCAGCCUCCCUCUCAGCCUGAGGAUUUGUCAUUAGCUGUUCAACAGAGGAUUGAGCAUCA | 0.387 ratio

Block 4
Target: Prothrombin, mature alpha-thrombin (F2, Homo sapiens, UniProt P00734)
Method: aptamer microarray, sandwich
Molecule type: DNA with 2'F-ANA
Medium: in vitro
Tested at: 200 nM
Setting: whole 15-mer aptamer, many near background
With: Cy3 exosite-II aptamer, 400 nM
Reading: higher = stronger binding
Strand: GGTTGGTGTGGTTGG
Modification | mean fluorescence intensity [a.u.]
2'F-ANA at 1 4 5 7 10 11 12 | 70.9
2'F-ANA at 2 3 7 9 12 13 14 15 | 468
2'F-ANA at 5 6 8 10 11 12 | 48.8
2'F-ANA at 6 7 10 11 13 14 15 | 113
2'F-ANA at 1 2 3 5 8 10 12 15 | 48.2
2'F-ANA at 1 3 5 8 12 15 | 131
2'F-ANA at 1 2 3 5 6 8 10 11 14 | 51.7
2'F-ANA at 2 3 6 7 8 12 13 14 | 554
2'F-ANA at 4 5 7 8 9 11 13 15 | 50.1
2'F-ANA at 2 5 6 9 11 15 | 57.1
2'F-ANA at 1 2 3 4 8 11 12 14 | 81.2
2'F-ANA at 4 5 10 | 46.7
2'F-ANA at 4 5 6 9 12 14 | 43.2
2'F-ANA at 2 3 6 8 10 14 | 276

A few entries again (block 4):
Modification | mean fluorescence intensity [a.u.]
2'F-ANA at 4 5 6 9 12 14 | 43.2
2'F-ANA at 2 3 7 9 12 13 14 15 | 468
2'F-ANA at 4 5 7 8 9 11 13 15 | 50.1
2'F-ANA at 2 3 6 7 8 12 13 14 | 554
